# Measured values pooled from the literature.
# A part holds a random share of what one study measured. “And” joins repeats or separate records; there may be more than shown.

# Series 1
# SMILES: Cc1cc2c(C(N)=O)c(N)n(-c3c(C)ccc(O)c3C)c2nc1C
cell line,observed,technique,refers to,concentration,setting,inhibition
HCC1569,cell proliferation,,,3333.33 nM,,95.5%
HCC1569,,automated immunoblotting,CDK1 phospho-Thr14,concentration not given,0 h after washout,75%
MKN-1,cell proliferation,,,1111.11 nM,,98.6%
NCI-H1568,cell proliferation,,,4.572 nM,,4.49% and 5.91%
NCI-H1568,cell proliferation,,,123.5 nM,,7.51% and 9.88%
RKO,cell proliferation,,,41.15 nM,,-3.28% and -4.84%
LN-229,cell proliferation,,,4.572 nM,,-1.55% and -10.5% and -2.66%
NCI-H1568,cell growth,,,3333.33 nM,,74.8%

# Series 2
# SMILES: C=CCc1ccc(O)c(-c2ccc(O)c(CC=C)c2)c1
# Observed: chloride current
# ANO1 del476-501: Anoctamin-1 (ANO1, Homo sapiens, UniProt Q5XXA6, del476-501)
# Chain of UniProt Q5XXA6 (whole entry, unmodified, looked up): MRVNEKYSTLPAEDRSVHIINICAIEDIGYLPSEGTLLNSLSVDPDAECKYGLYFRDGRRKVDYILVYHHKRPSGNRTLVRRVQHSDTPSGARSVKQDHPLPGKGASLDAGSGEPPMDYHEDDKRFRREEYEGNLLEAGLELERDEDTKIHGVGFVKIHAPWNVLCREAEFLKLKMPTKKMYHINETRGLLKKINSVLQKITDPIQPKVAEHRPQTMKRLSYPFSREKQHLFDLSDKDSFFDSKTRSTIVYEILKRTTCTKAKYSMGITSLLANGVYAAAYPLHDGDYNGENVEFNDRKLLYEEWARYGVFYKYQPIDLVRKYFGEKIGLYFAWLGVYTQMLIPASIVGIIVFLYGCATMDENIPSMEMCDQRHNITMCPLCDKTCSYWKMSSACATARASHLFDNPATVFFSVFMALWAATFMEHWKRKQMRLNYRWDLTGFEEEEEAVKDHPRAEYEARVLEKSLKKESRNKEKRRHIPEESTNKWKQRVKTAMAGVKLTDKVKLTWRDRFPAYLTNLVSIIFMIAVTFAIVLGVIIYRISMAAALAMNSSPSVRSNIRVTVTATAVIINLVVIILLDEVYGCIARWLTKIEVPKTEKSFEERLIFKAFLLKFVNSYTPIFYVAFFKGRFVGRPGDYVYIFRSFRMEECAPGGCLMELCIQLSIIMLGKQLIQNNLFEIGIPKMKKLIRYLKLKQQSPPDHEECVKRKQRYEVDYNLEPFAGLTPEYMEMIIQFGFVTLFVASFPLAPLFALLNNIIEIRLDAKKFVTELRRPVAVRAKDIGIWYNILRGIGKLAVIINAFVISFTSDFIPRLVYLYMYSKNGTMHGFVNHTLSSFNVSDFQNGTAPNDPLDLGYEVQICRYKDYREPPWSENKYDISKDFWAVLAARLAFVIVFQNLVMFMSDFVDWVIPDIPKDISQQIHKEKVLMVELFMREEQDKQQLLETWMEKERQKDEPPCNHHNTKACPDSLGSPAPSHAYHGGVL
# ANO1 del476-501/F628A: Anoctamin-1 (ANO1, Homo sapiens, UniProt Q5XXA6, del476-501/F628A)
# ANO1 del476-501/E659A/K629A: Anoctamin-1 (ANO1, Homo sapiens, UniProt Q5XXA6, del476-501/E659A/K629A)
target,mode,technique,concentration,setting,added,normalized current
ANO1 del476-501,,whole-cell voltage clamp,3 µM,"wild type, concentration-response at -20 mV",4 µM Ca2+,-0.141
ANO1 del476-501/F628A,,whole-cell voltage clamp,30 µM,concentration-response at 20 mV,4 µM Ca2+,0.1
ANO1 del476-501/F628A,,whole-cell voltage clamp,30 µM,concentration-response at 60 mV,4 µM Ca2+,0.303
ANO1 del476-501/E659A/K629A,,inside-out patch clamp,10 µM,membrane voltage -20 mV,,-0.177
ANO1 del476-501/E659A/K629A,,inside-out patch clamp,10 µM,membrane voltage -40 mV,,-0.371
"Anoctamin-1 (ANO1, Homo sapiens, UniProt Q5XXA6)",inhibitor,inside-out patch clamp,10 µM,wild type at -80 mV,,-0.575
ANO1 del476-501/F628A,,whole-cell voltage clamp,30 µM,concentration-response at -20 mV,4 µM Ca2+,-0.0964
ANO1 del476-501,,whole-cell voltage clamp,3 µM,"wild type, concentration-response at 60 mV",4 µM Ca2+,0.451

# Series 3
# SMILES: CC(=O)N[C@@H](Cc1c[nH]c2ccccc12)C(=O)N[C@@H](CCC(=O)C=[N+]=[N-])C(=O)OC(C)C
# Dose: dose not given
# Reference: vehicle
technique,refers to,host,medium,fold change
,UDP-glucose,"mouse, EL4 tumour-bearing",EL4 tumour,0.35
,mesaconate,"mouse, EL4 tumour",tumour,5.81
,indolelactate,"mouse, EL4 tumour-bearing",EL4 tumour,0.38
,6-phosphogluconate,"mouse, EL4 tumour-bearing",EL4 tumour,2.04
,homocysteine,"mouse, EL4 tumour-bearing",EL4 tumour,0.178
,N-acetylglutamate,"mouse, EL4 tumour-bearing",EL4 tumour,2.36
metabolomics,cytidine 2'-monophosphate,mouse,EL4 tumour,3.12
metabolomics,uridine 3'-monophosphate,mouse,EL4 tumour,3.33

# Other studies, line by line
SMILES,cell line,concentration,endpoint,value
CC[C@@H](C)c1nc2cc(Nc3ccnc4ccc(S(=O)(=O)C(C)C)cc34)ccc2s1.Cl,L929 RIPK3 knockout,12.5 µM,viability,108% and 94.7% and 114% and 102%

# For quick reference, copied from above (series 3):
technique,refers to,host,medium,fold change
,UDP-glucose,"mouse, EL4 tumour-bearing",EL4 tumour,0.35
,mesaconate,"mouse, EL4 tumour",tumour,5.81
,indolelactate,"mouse, EL4 tumour-bearing",EL4 tumour,0.38
,6-phosphogluconate,"mouse, EL4 tumour-bearing",EL4 tumour,2.04
